Measured values from different studies.
A part holds a random share of what one study measured. Changes are numbered by the printed parent chain.

Study 1 — method: RNA Bind-n-Seq; molecule type: RNA; sample: in vitro; concentration: not given; relative to: input RNA pool; direction: higher = stronger binding
Target: RING finger protein unkempt homolog, zinc fingers 1-6, GST-SBP tag (UNK, Homo sapiens, UniProt Q9C0B0, residues 30-357)
Notes: RNA with constant flanks, human and mouse sites, ends assumed
Construct (chain): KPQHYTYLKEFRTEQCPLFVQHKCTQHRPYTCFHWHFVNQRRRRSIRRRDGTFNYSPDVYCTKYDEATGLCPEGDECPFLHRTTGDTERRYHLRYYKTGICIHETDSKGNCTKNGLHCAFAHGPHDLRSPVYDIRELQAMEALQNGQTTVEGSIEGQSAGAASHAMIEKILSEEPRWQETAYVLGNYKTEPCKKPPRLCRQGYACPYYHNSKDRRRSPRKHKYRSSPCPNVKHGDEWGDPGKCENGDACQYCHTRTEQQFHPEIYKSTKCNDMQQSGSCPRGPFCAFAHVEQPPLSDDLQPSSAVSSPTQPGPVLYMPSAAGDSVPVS
For `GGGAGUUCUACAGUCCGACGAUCCAUCUAUACAAUUUUAAAAAUACUUCCUCAUAGGAUGCUUUGGCCCUUCAUCUAUUUAAUCAUAGCUACAUACCUAUUUUUUAUAAGUAGCAGUACACAUUCAAAGGGGUAUUCCUAGCUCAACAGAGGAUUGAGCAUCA`, the bound/input enrichment was 7.76 ratio.
For `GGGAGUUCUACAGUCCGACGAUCAUAAUUUUAUUGAGAUUCCAAACUUUUCGAUGAAAACAAUUUAACUCCUUUAUUGAUUAUCCUUAUCAAAAAAGAAAAAAAAAAAAGAAAAAGAAAGGAAGAAAUAAGGAAAGAAAGAAACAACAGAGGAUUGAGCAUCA`, the bound/input enrichment was 0.574 ratio.
`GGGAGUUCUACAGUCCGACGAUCAGUAGUACCAGUUUGCCACCUGUCGCUGAUGAAAGCCCAGUCACUGUAAAACCAGAUAGUCAACUUGAAGACAUGGGAUACUGUGUGUUCAACAAGUACACAGUCCCUCUCCCAUCACCACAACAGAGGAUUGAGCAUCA` has a bound/input enrichment of 0.297 ratio.
With `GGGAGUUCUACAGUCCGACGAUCUUUUUUAACAAAAAAAGGGACCAUUGCAACUUUUGUUAAUUUAAUUUUUUUUUUUUUUUUUUUUUUUUUUUUUUUUGGAGGGAGAAAACUGAUGUCUUCUAUGCAUCCGAUUCUUAACAACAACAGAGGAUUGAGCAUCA` the bound/input enrichment was 7.32 ratio.
`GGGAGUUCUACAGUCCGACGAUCGCUGAAUUAGAAAGAAUAAAGGUUGAAAAGGGACAGUUGGAAUCUACAUUAAGAGAGAAGUCGCAACAACUUGAGAGUCUCCAAGAAAUGAAAGUUAAUUUAGAGGAACAGUUAAAGAAACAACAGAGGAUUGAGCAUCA` has a bound/input enrichment of 2.97 ratio.
`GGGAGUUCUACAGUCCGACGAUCGCUGGCCUCAGGAUUGCAGGACCUUUUGGGUUAAGUCUAGUGCAGCGUUUGAGGCCUGAUUUCAAGCGGAAGUACUCCUCUAUGUUUGAAGAUGACACGGUGACAGAGUACAUCUACCACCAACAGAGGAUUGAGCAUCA` has a bound/input enrichment of 0.141 ratio.
The bound/input enrichment of `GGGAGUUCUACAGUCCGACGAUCGAACAUUUGGCUGUUCGUUUUAAACUACAGGAUGUUGCAGACUCAUUUAAGAAAAUUUUUGAUGAAGCAAAAACAGCCCAAGAAAAAGAUUCAUUGAUAACACCUCAUGUUUCUCAUCUGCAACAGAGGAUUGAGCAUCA` is reported as 0.0842 ratio.
`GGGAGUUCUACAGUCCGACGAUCCUACUGAGUAAGGGGCAUUCCUGUUACAGACCAAGGAGAACUGGAGAAAGAAAGAGAAAAUCAGUUCGUGGUUGCAUUGUGGAUGCAAAUCUGAGCGUUCUCAACUUGGUUAUUGUAAAACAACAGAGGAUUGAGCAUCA` has a bound/input enrichment of 0.186 ratio.

Study 2 — target: FOSL2, bZIP domain (human); method: DHFR protein complementation; sample: yeast; relative to: wild-type JUN-FOS pair; direction: higher = stronger binding
Notes: single substitutions, most at no-binding floor
Starting sequence: JUN, bZIP domain (human); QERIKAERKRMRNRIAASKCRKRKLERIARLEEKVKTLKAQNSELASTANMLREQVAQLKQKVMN; partner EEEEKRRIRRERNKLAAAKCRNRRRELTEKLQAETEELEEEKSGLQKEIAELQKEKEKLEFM
`R53G` gave a binding fitness of -0.541 natural log.
With `A29S` the binding fitness was 0.025 natural log.
`E44S` gave a binding fitness of -0.0516 natural log.
The binding fitness of `Q41P` is reported as -1.27 natural log.
The binding fitness of `R53V` is reported as -0.582 natural log.
`L31C` has a binding fitness of -0.353 natural log.
The binding fitness of `L52C` is reported as -1.27 natural log.
The binding fitness of `K39T` is reported as -0.126 natural log.
The binding fitness of `A46M` is reported as 0.0539 natural log.
With `S47W` the binding fitness was 0.0133 natural log.
`T37Q` gave a binding fitness of 0.136 natural log.
`I28H` gave a binding fitness of -0.0831 natural log.
`K34D` gave a binding fitness of -0.102 natural log.
The binding fitness of `L38T` is reported as -0.728 natural log.
`V35G` has a binding fitness of -0.95 natural log.
`A29W` has a binding fitness of -0.0714 natural log.
`K36S` gave a binding fitness of 0.0754 natural log.
`K39N` has a binding fitness of -0.367 natural log.

Study 3 — target: CEP164, C-terminal peptide (human); method: DHFR complementation, deep sequencing; sample: yeast; relative to: wild type; direction: higher = weaker binding
Notes: single substitutions, model-inferred values
Starting sequence: PDZK1, PDZ domain 2 (human); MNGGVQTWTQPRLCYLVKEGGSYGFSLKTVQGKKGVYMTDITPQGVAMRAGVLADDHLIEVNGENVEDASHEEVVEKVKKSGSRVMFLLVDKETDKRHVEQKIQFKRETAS; partner HNRVKVYRF
For `H71P`, “binding free energy change” read -0.0707 kcal/mol.
Under “binding free energy change”, `R107V` is recorded as -0.115 kcal/mol.
`K33V` — result for “binding free energy change”: -0.243 kcal/mol.
Under “binding free energy change”, `I103W` is recorded as -0.129 kcal/mol.
For `S81Y`, “binding free energy change” read 0.58 kcal/mol.
For `V46P`, “binding free energy change” read 0.132 kcal/mol.
For `E67D`, “binding free energy change” read 0.473 kcal/mol.
`G21L`: “binding free energy change” 0.136 kcal/mol.
Under “binding free energy change”, `L16P` is recorded as 1.15 kcal/mol.
For `L13E`, “binding free energy change” read -0.115 kcal/mol.
`I103V`: “binding free energy change” -0.0793 kcal/mol.
Under “binding free energy change”, `V85H` is recorded as 1.42 kcal/mol.
`L13T` — result for “binding free energy change”: -0.0882 kcal/mol.
`S83K` — result for “binding free energy change”: -0.0423 kcal/mol.
`Y37G`: “binding free energy change” 2.39 kcal/mol.

Study 4 — method: universal PBM; molecule type: double-stranded DNA, one strand shown; sample: in vitro; concentration: 600 nM; direction: higher = stronger binding
Target: Sal-like protein 4, full length isoform A (SALL4, Homo sapiens, UniProt Q9UJQ4, residues 1-1053)
Chain of UniProt Q9UJQ4 (whole entry, looked up): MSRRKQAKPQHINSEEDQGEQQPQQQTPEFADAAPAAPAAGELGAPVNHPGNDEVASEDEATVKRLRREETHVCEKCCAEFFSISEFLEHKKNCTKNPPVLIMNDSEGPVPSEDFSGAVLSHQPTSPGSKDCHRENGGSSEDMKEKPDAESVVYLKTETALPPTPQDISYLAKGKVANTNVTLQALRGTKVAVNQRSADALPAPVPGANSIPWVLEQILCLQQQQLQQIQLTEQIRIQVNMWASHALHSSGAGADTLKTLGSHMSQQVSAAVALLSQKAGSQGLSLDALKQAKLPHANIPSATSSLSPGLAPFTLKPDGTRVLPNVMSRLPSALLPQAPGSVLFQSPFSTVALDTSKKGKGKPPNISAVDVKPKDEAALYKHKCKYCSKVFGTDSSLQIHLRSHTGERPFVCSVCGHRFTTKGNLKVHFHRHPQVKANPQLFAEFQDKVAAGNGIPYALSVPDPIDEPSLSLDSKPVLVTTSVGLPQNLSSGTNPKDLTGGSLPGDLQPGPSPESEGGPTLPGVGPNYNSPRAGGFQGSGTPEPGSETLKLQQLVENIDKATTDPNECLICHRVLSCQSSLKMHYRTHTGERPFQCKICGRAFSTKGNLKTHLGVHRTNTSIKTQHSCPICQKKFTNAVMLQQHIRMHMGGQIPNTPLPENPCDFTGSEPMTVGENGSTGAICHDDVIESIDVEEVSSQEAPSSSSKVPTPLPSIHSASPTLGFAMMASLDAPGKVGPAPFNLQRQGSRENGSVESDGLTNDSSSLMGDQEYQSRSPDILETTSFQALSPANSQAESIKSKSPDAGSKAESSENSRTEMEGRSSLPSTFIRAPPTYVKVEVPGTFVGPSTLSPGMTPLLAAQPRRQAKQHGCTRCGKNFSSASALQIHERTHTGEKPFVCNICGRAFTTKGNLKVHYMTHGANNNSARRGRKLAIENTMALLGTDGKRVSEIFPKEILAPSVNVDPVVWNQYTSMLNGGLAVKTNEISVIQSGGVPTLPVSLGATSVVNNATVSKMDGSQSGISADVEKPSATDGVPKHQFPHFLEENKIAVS
Notes: 8-mer, flanks averaged, mean of replicates
`GATCAGAA` gave an E-score of -0.0425.
For `GAGCGGGA`, the E-score was -0.149.
With `ACATTGGT` the E-score was 0.0166.
`CATCTGCG` gave an E-score of -0.0515.
For `CTGTTGGA`, the E-score was 0.0793.
`AAAAGATT` has an E-score of 0.18.
For `CTTCTGAC`, the E-score was 0.0833.
For `ATCTATCC`, the E-score was 0.135.
With `CCAGTGTC` the E-score was -0.185.
The E-score of `CATTCTAA` is reported as 0.113.
For `AACGCTGA`, the E-score was -0.163.
The E-score of `CTGATCCC` is reported as -0.142.
The E-score of `ACGTTTAA` is reported as 0.28.
The E-score of `CTATTACC` is reported as 0.093.
For `CGCTTAAG`, the E-score was -0.153.
With `CATCTGCA` the E-score was -0.00839.

Study 5 — target: CCNB2, cyclin fold, Cln2 fusion (human); method: yeast growth competition, sequencing; sample: yeast; notes: weak parent motif; relative to: not given; direction: higher = stronger binding
Starting sequence: PKN2 docking peptide (human); VSAVRKLDFSDTM
`A3H` — result for “normalised enrichment score”: 0.295.
`D8H` — result for “normalised enrichment score”: 0.497.
Under “normalised enrichment score”, `V4R` is recorded as 1.73.
Under “normalised enrichment score”, `K6L` is recorded as 0.104.
Under “normalised enrichment score”, `S2M` is recorded as 0.406.
For `R5A`, “normalised enrichment score” read -0.00842.
`S2D`: “normalised enrichment score” 0.507.
`D11R` — result for “normalised enrichment score”: -0.0941.
For `A3S`, “normalised enrichment score” read 0.273.
For `F9R`, “normalised enrichment score” read 0.0452.
`K6V`: “normalised enrichment score” -0.152.
For `A3Y`, “normalised enrichment score” read 0.271.
`D8I` — result for “normalised enrichment score”: 0.205.
`D8E` — result for “normalised enrichment score”: 0.245.
`D11A`: “normalised enrichment score” 0.485.
`S10G`: “normalised enrichment score” 0.599.
For `D8A`, “normalised enrichment score” read 0.392.
For `V4Q`, “normalised enrichment score” read 0.257.
`A3F` — result for “normalised enrichment score”: 0.676.
`D11I`: “normalised enrichment score” -0.0282.
For `L7W`, “normalised enrichment score” read -0.13.
`K6E`: “normalised enrichment score” -0.14.
Under “normalised enrichment score”, `A3G` is recorded as -0.249.
For `L7M`, “normalised enrichment score” read 0.191.
Under “normalised enrichment score”, `R5W` is recorded as -0.186.

Mixed results
For `PhoQ, residues 284 288 289 292 302 303 NLCILV`, the fold induction was 8.71 (PhoP, residues 12 14 15 18 19 SPWRL (Escherichia coli, UniProt P23836); Sort-seq, refers to: YFP reporter; E. coli; PhoQ-PhoP variant library, with: 10 µM Mg2+; relative to: high Mg2+ state, higher = stronger signaling).

Excerpt of the above (study 1):
With `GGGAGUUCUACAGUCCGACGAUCUUUUUUAACAAAAAAAGGGACCAUUGCAACUUUUGUUAAUUUAAUUUUUUUUUUUUUUUUUUUUUUUUUUUUUUUUGGAGGGAGAAAACUGAUGUCUUCUAUGCAUCCGAUUCUUAACAACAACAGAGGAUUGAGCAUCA` the bound/input enrichment was 7.32 ratio.
`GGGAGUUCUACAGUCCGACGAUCCUACUGAGUAAGGGGCAUUCCUGUUACAGACCAAGGAGAACUGGAGAAAGAAAGAGAAAAUCAGUUCGUGGUUGCAUUGUGGAUGCAAAUCUGAGCGUUCUCAACUUGGUUAUUGUAAAACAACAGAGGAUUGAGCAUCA` has a bound/input enrichment of 0.186 ratio.
For `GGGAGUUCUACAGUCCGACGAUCAUAAUUUUAUUGAGAUUCCAAACUUUUCGAUGAAAACAAUUUAACUCCUUUAUUGAUUAUCCUUAUCAAAAAAGAAAAAAAAAAAAGAAAAAGAAAGGAAGAAAUAAGGAAAGAAAGAAACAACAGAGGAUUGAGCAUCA`, the bound/input enrichment was 0.574 ratio.
`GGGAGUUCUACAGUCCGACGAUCGCUGAAUUAGAAAGAAUAAAGGUUGAAAAGGGACAGUUGGAAUCUACAUUAAGAGAGAAGUCGCAACAACUUGAGAGUCUCCAAGAAAUGAAAGUUAAUUUAGAGGAACAGUUAAAGAAACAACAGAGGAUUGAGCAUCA` has a bound/input enrichment of 2.97 ratio.
`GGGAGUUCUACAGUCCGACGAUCGCUGGCCUCAGGAUUGCAGGACCUUUUGGGUUAAGUCUAGUGCAGCGUUUGAGGCCUGAUUUCAAGCGGAAGUACUCCUCUAUGUUUGAAGAUGACACGGUGACAGAGUACAUCUACCACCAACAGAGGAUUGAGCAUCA` has a bound/input enrichment of 0.141 ratio.
`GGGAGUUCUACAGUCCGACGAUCAGUAGUACCAGUUUGCCACCUGUCGCUGAUGAAAGCCCAGUCACUGUAAAACCAGAUAGUCAACUUGAAGACAUGGGAUACUGUGUGUUCAACAAGUACACAGUCCCUCUCCCAUCACCACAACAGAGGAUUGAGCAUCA` has a bound/input enrichment of 0.297 ratio.
The bound/input enrichment of `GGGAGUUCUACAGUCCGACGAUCGAACAUUUGGCUGUUCGUUUUAAACUACAGGAUGUUGCAGACUCAUUUAAGAAAAUUUUUGAUGAAGCAAAAACAGCCCAAGAAAAAGAUUCAUUGAUAACACCUCAUGUUUCUCAUCUGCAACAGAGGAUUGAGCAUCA` is reported as 0.0842 ratio.
For `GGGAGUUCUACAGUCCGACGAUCCAUCUAUACAAUUUUAAAAAUACUUCCUCAUAGGAUGCUUUGGCCCUUCAUCUAUUUAAUCAUAGCUACAUACCUAUUUUUUAUAAGUAGCAGUACACAUUCAAAGGGGUAUUCCUAGCUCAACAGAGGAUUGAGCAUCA`, the bound/input enrichment was 7.76 ratio.
